# Measurements from different studies.
# Compare with care: the assays were run in different laboratories.
# Chain of UniProt P51812 (whole entry, looked up): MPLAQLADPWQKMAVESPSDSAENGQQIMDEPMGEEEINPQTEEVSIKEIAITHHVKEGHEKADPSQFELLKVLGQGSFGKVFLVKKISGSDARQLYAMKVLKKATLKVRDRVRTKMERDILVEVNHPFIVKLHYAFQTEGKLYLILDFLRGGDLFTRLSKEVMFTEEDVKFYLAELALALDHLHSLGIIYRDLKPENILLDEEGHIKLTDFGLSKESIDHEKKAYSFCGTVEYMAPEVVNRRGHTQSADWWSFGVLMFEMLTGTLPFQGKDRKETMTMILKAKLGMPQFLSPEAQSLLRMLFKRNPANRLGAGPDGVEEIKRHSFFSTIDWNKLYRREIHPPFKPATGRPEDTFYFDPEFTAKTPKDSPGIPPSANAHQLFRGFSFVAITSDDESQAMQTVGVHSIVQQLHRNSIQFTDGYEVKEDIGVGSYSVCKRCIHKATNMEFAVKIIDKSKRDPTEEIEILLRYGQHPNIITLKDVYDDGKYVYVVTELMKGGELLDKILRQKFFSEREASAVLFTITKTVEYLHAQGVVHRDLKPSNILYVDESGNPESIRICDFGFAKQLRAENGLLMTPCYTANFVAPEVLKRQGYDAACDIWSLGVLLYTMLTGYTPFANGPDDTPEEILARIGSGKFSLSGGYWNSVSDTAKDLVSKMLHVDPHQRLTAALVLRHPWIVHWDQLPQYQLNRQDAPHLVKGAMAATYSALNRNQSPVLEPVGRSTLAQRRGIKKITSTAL
# Chain of UniProt Q86UE8 (whole entry, looked up): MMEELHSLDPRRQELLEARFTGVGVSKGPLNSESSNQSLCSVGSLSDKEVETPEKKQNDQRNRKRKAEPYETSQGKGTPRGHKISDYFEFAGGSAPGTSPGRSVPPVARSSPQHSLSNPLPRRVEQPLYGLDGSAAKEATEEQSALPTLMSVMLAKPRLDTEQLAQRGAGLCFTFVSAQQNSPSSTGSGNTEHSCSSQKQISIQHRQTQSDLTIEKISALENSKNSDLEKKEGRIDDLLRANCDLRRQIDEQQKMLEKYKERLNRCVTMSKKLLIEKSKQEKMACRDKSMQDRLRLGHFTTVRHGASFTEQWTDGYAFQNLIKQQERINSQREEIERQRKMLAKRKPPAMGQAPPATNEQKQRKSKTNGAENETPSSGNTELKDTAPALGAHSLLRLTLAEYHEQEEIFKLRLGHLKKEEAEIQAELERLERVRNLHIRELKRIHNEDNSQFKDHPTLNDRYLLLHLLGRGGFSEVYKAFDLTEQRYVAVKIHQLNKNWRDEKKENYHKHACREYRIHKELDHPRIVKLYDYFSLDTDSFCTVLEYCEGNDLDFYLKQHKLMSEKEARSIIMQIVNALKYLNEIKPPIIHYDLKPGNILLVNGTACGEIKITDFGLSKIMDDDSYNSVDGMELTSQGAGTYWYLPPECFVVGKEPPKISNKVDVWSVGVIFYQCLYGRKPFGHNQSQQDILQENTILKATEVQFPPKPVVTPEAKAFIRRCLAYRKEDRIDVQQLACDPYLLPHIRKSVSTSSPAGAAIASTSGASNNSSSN
# Chain of UniProt Q8IY84 (whole entry, looked up): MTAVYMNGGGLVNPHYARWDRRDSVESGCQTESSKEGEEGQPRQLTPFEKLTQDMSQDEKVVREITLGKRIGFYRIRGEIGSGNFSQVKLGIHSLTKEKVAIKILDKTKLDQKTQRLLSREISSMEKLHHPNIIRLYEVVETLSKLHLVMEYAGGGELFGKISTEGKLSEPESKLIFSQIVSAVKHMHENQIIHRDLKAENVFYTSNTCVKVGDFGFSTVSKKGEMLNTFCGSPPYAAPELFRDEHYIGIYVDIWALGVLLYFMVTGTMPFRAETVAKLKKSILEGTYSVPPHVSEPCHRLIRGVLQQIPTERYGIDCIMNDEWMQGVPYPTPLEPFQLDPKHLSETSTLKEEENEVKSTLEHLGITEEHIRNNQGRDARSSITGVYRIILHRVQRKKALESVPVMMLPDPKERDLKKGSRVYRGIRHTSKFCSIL
# Chain of UniProt Q16816 (whole entry, looked up): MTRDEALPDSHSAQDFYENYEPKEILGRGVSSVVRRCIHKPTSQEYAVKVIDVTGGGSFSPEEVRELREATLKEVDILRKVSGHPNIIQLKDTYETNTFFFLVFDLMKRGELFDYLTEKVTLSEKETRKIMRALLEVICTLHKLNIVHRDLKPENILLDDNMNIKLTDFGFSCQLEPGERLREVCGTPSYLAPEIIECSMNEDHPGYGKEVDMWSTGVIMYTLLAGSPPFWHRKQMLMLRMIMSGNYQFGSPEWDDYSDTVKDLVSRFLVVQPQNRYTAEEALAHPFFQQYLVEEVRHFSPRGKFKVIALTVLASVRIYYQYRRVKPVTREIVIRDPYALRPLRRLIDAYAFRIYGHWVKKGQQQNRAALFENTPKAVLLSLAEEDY
SMILES,tested on,test,test system,setting,quantity,value
CCCCC(=O)Nc1ccc(-c2ccc3ncn(CCC)c(=O)c3c2)cn1,"Serine/threonine-protein kinase NIM1 (NIM1K, Homo sapiens, UniProt Q8IY84)","binding, competition with immobilised ligand",,0.5 µM,remaining binding,100%
O=C(c1ccc(F)cc1)C1CCN(CCn2c(=O)[nH]c3ccccc3c2=O)CC1,,metabolic stability,"monkey, liver microsomes",15 min,compound remaining,59.9%
O=c1nc(N2CCN(CC3CCCCC3)CC2)sc2c([N+](=O)[O-])cc(C(F)(F)F)cc12,,,"CD-1 mouse, plasma","oral, 100 mg/kg, 30 min",concentration,2.9 µg/mL
C=CC(=O)N1CCC(COCC(=O)N2CCN(c3nc(-c4cnc(N)nc4C(F)F)nc(N4CCOC[C@@H]4C)n3)CC2)CC1,"Phosphorylase b kinase gamma catalytic chain, skeletal muscle/heart isoform (PHKG1, Homo sapiens, UniProt Q16816)","binding, competition with immobilised ligand",,1 µM,remaining binding,92%
Cn1nc2c(=O)n(C3CC3)ccc2c1[C@](O)(c1ccc(C(F)(F)F)c(Cl)c1)C(F)(F)F,,nephelometry,aqueous buffer,"30 min, pH 6.5",kinetic solubility,5 to 10 µM
Cc1noc(C)c1Cn1cc(N2C(=O)CN(Cc3cccc(O)c3)C2=O)cn1,,,"male Sprague-Dawley rat, plasma","oral, 100 mg/kg, 30 min",concentration,0.0681 µg/mL
Cn1nc2c(=O)n(C3CC3)ccc2c1[C@](O)(c1cnc(C(F)(F)F)c(Cl)c1)C(F)(F)F,,nephelometry,aqueous buffer,"30 min, pH 6.5",kinetic solubility,20 to 40 µM
Nc1ccn([C@@H]2O[C@H](CO)[C@@H](O)C2(F)F)c(=O)n1,HEK293,"cell growth or viability, MTT",,"0.3125 µg/mL, 48 h",viability,85.9%
COc1cc(-c2cncc3c2CN(C)Cc2cc(N4CCNCC4)ccc2-3)cc(OC)c1OC,"Serine/threonine-protein kinase tousled-like 2 (TLK2, Homo sapiens, UniProt Q86UE8)","enzyme activity, inhibitor",,1 µM,remaining activity,104%
Cc1cc([C@@H](C)Nc2ccccc2C(=O)O)c2nc(N3CCC(F)(F)CC3)c(C#N)c(=O)n2c1,"Ribosomal protein S6 kinase alpha-3, N-terminal kinase domain (RPS6KA3, Homo sapiens, UniProt P51812)","binding, competition with immobilised ligand",,1 µM,remaining binding,96%
COc1cccc(OC)c1-c1cc(C(=O)NC2(C(=O)O)C3CC4CC(C3)CC2C4)nn1-c1ccc(C(=O)N(C)CCCN(C)CCCN(C)C(=O)CN2CCN(CC(=O)[O-])CCN(CC(=O)[O-])CCN(CC(=O)[O-])CC2)cc1C(C)C.[177Lu+3] (stereo not drawn),HT-29 tumour model,,"host not given, bone","24 h, tumour-bearing",tracer uptake,0.101 %ID/g
COc1cccc(-c2n[nH]c(SCc3ccccn3)n2)c1OC,,,"male Sprague-Dawley rat, plasma","oral, 30 mg/kg, 8 h, single dose",concentration,0.263 µg/mL
